Assay results of several laboratories.
Lines come from different studies, so protocols differ. “And” joins repeats or separate records; there may be more than shown. ± gives the spread as reported.

Cc1cc(C(C)(C)c2ccc(O)c(C)c2)ccc1O — S phase cells (HepG2 spheroids; Hoechst flow cytometry; 1 µM, 24 h): 8.97 ± 1.36%
N[C@@H]1CN2CCC1CC2 — inhibition (THP-1; pyroptotic LDH release; 2 µM, 40 min, with: LPS then nigericin): 8.85%
O=C1N[C@H]2[C@H](CS[C@H]2CCCCC(=O)N2CCN(C(=O)c3ccc(/C=C/c4n[nH]c5cc(-c6ccc(S(=O)(=O)F)cc6)ccc45)cc3)CC2)N1 — number of engaged kinases (K562, HeLa, MCF7 combined; SILAC LC-MS/MS; SILAC ratio at least 2): 114
Oc1ccc(C(c2ccc(O)cc2)(C(F)(F)F)C(F)(F)F)cc1 — G1 phase cells (HepG2 spheroids; Hoechst flow cytometry; 0.1 µM, 24 h): 73.5 ± 1.59%
Cc1ccccc1O — inhibition (THP-1; pyroptotic LDH release; 2 µM, 40 min, with: LPS then nigericin): -3.02%
COc1c(CCC[P+](c2ccccc2)(c2ccccc2)c2ccccc2)cc2c(c1OC)OCO2.[I-] — LC50 (COLO 205; SRB): > -4 log M
COC[C@@H]([C@H](O)[C@H](O)C(=O)NCC[C@H](C)c1nc(/C=C/C[C@@H]2O[C@]3(C[C@@H](O)[C@@H]2C)O[C@H]([C@H](C[C@H](O)[C@H](C)[C@H](O)[C@H](C)/C=C(C)/C(C)=C/C=C/C(C)=C\C#N)OC)[C@H](OP(=O)(O)O)C3(C)C)co1)N(C)C — Z score (MDA-MB-231 BAX/BAK siRNA knockdown; cell viability, CellTiter-Glo; direction not given): 1.21
O=c1c(O)c(-c2ccc(O)c(O)c2)oc2cc(O)cc(O)c12 — EC50 (SH-SY5Y Aβ-GFP cells; Aβ aggregation inhibition, GFP folding reporter): 12.2 µM
C=C(C)[C@H]1Cc2c(ccc3c2O[C@@H]2COc4cc(OC)c(OC)cc4[C@@H]2C3=O)O1 — lowest concentration increasing apoptotic cells (ReNcell VM; YO-PRO-1 staining; 24 h): ≤ 0.78 µM
CCCC(=O)O[C@H]1C[C@H]2C[C@@H](O)C[C@@H](C[C@@H](C)/C=C/C=C\C[C@@H]3O[C@@H](C[C@@H]3C)[C@@H](O)C[C@@H]3OC(=O)[C@]1(O)[C@@H]3O)O2 — basal oxygen consumption rate (NCI-H292; XF-24 extracellular flux; 1 µM): no effect
CC(c1ccccc1)(c1ccc(O)cc1)c1ccc(O)cc1 — S phase cells (HepG2 spheroids; Hoechst flow cytometry; 10 µM, 24 h): 8.92 ± 2.46%
Cn1cc2cc(C(F)(F)c3nnc4ccc(-c5cnn(C6CC6)c5)nn34)c(F)cc2n1 — protein level (MKN-45; western blot, item: CDK2, CDK4, CDK6, cyclin E1; concentration not given, 24 h): decreased
CCCC[C@@H]1NC(=O)[C@H](Cc2ccc(O)cc2)NC(=O)[C@@H]2CCCN2C(=O)[C@H](CC(=O)O)NC(=O)[C@H](C)NC(=O)[C@H](Cc2ccccc2)NC(=O)[C@@H]2CSCCC(=O)N3CN(CN(C3)C(=O)CCSC[C@@H](C(N)=O)NC1=O)C(=O)CCSCCC(=O)N[C@@H](CC(C)(C)C)C(=O)N1CCC[C@H]1C(=O)N[C@@H](CCC(=O)O)C(=O)N[C@H](CCCCNC(=O)CCc1cn(CCOCCOCCOCCN(CCOCCOCCOCCC(=O)N[C@H]3CSCCC(=O)N4CN5CN(C4)C(=O)CCSC[C@H](NC(=O)[C@@H](CC(=O)O)NC(=O)[C@H](Cc4cccc6ccccc46)NC(=O)[C@@H]4CCCN4C3=O)C(=O)N[C@@H](CCSC)C(=O)N[C@@H](CCCCNC(=N)N)C(=O)N[C@@H](CC(=O)O)C(=O)N[C@@H](Cc3c[nH]c4ccccc34)C(=O)N[C@@H](CO)C(=O)N[C@@H]([C@@H](C)O)C(=O)N3CCC[C@H]3C(=O)N3C[C@H](O)C[C@H]3C(=O)N[C@@H](Cc3c[nH]c4ccccc34)C(=O)N[C@H](C(N)=O)CSCCC5=O)CCOCCOCCOCCn3cc(CCC(=O)NCCCC[C@H]4NC(=O)[C@H](CCC(=O)O)NC(=O)[C@@H]5CCCN5C(=O)[C@H](CC(C)(C)C)NC(=O)CCSCCC(=O)N5CN6CN(C5)C(=O)CCSC[C@H](NC(=O)[C@H](Cc5ccc(O)cc5)NC(=O)[C@@H]5CCCN5C4=O)C(=O)N[C@@H](Cc4ccccc4)C(=O)N[C@@H](C)C(=O)N[C@@H](CC(=O)O)C(=O)N4CCC[C@H]4C(=O)N[C@@H](Cc4ccc(O)cc4)C(=O)N[C@@H](CCCC)C(=O)N[C@H](C(N)=O)CSCCC6=O)nn3)nn1)C(=O)N1CCC[C@H]1C(=O)N[C@@H](Cc1ccc(O)cc1)C(=O)N2 — EC50 (human PBMC with HT-1376 coculture; IL-2 secretion; with: anti-CD3): 0.0044 ± 0.0019 µM
Nc1ncc(-c2nc(N3CCOCC3)nc(N3CCOCC3)n2)c(C(F)F)n1 — GI50 (panel of 44 tumour cell lines; cell growth; 72 h, panel mean): 0.236 µM
Cc1cnc2ccc3c(nc(N)n3C)c2n1 — plating efficiency (BALB/c 3T3; colony formation; 5 µM): 46%
CC(C)N1CCC(NC2CCN(c3cccc(-c4cc5cc(F)ccc5[nH]4)c3)CC2)CC1 — CC50 (ACHN): 6.03 µM
Nc1ncnc2c1ncn2[C@@H]1O[C@@H]2COP(=O)(O)O[C@H]3[C@@H](O)[C@H](n4cnc5c(=O)[nH]cnc54)O[C@@H]3COP(=O)(O)O[C@H]2[C@H]1O — pathway fold enrichment (HFF-1; RNA sequencing, item: Reactome R-HSA-3906995; downregulated pathway; reference: Zika virus alone): 6.02
Oc1cc(Cl)ccc1Oc1ccc(Cl)cc1Cl — MyBP-C level change (human iPSC cardiomyocytes; plate-normalised; concentration not given, hit retest; reference: vehicle controls, SDs below control): 14.5 SD
C/C=C(/C)C(=O)O[C@H]1C(C)=C2[C@H]([C@@H]1OC(=O)CCCCCCC)[C@@](C)(OC(C)=O)C[C@H](OC(=O)CCC)[C@@]1(O)[C@H]2OC(=O)[C@@]1(C)O — normalized enrichment score (HEK-293T; RNA-seq GSEA, item: Hallmark IL2 STAT5 signaling; 500 nM, 6 h; direction not given): 1.48
CC[C@H]1CN2CC[C@H]1C[C@@H]2[C@@H](O)c1ccnc2ccc(OC)cc12 — inhibition (THP-1; pyroptotic LDH release; 2 µM, 40 min, with: LPS then nigericin): -0.255%
O=C1N(Cc2ccccc2Cl)c2ccccc2C12NN=C(c1ccccc1)S2 (stereo not shown) — fold change (MDA-MB-468; gene expression array, item: TNIP1 mRNA; 10 µM, 12 h; reference: untreated, up): 1.58
COc1c(C)c2c(c(O)c1C/C=C(\C)CCC(=O)O)C(=O)OC2 — IC50 (THP-1; cell proliferation; blood cancer): 0.437 µM
CCN(CC)c1ccc(C=NNC(=O)CSc2nc3ccccc3c(=O)n2Cc2ccc(S(N)(=O)=O)cc2)c(O)c1 — CC50 (TK-10; NCI five-dose screen): > 100 µM
Oc1ccc(Br)cc1 — inhibition (THP-1; pyroptotic LDH release; 2 µM, 40 min, with: LPS then nigericin): -13.6%
OC1CCN(c2ccc(/C=N/NC(=S)Nc3ccc(Br)cc3)cc2)CC1 — selectivity ratio (BEAS-2B and A549; MTT; reference: IC50 BEAS-2B over IC50 A549): 10.7
CC[C@H](C)[C@H](NC(=O)[C@H](C)NC(=O)CNC(=O)[C@H](Cc1ccccc1)NC(=O)[C@H](CC(N)=O)NC(=O)[C@H](CC(N)=O)NC(=O)[C@H](CO)NC(=O)[C@H](CO)NC(=O)[C@H](Cc1c[nH]cn1)NC(=O)[C@@H](NC(=O)[C@H](CC(C)C)NC(=O)[C@H](Cc1ccccc1)NC(=O)[C@H](CC(N)=O)NC(=O)[C@H](C)NC(=O)[C@H](CC(C)C)NC(=O)[C@H](CCCNC(=N)N)NC(=O)[C@H](CCC(N)=O)NC(=O)[C@@H](NC(=O)[C@H](C)NC(=O)[C@@H]1CSSC[C@H](NC(=O)[C@@H](N)CCCCN)C(=O)N[C@@H](CC(N)=O)C(=O)N[C@@H]([C@@H](C)O)C(=O)N[C@@H](C)C(=O)N[C@@H]([C@@H](C)O)C(=O)N1)[C@@H](C)O)C(C)C)C(=O)N[C@@H](CC(C)C)C(=O)N[C@@H](CO)C(=O)N[C@@H](CO)C(=O)N[C@H](C(=O)N[C@@H](CC(N)=O)C(=O)N[C@H](C(=O)NCC(=O)N[C@@H](CO)C(=O)N[C@@H](CC(N)=O)C(=O)N[C@H](C(=O)N[C@@H](Cc1ccc(O)cc1)C(N)=O)[C@@H](C)O)C(C)C)[C@@H](C)O — viability (INS-1; MTT; 1 µM, 24 h): 54.6% and 54.1%
O=C(Nc1ccc2[nH]nc(-c3ccncc3)c2c1)[C@@H]1CCN(CC(=O)N2CCN(c3ccc(-c4ncccn4)cc3)CC2)C1 — PI-positive cells (HCT116; IncuCyte; concentration not given, 32 (unit not given)): 9.92 count and 10.1 count
CN1CCN(C2(CNC3CCN(c4cccc(-c5cc6cc(F)ccc6[nH]5)c4)CC3)CCC2)CC1 — CC50 (TK-10): 6.4 µM
N.N.[Cl][Pt][Cl] — EC50 (human normal skin fibroblasts; cell viability, Alamar Blue; dark): 2.6 µM
C=CCN1C[C@H](C)N([C@@H](c2cccc(O)c2)c2cccc(C(=O)N(C)c3cccc(F)c3)c2)C[C@H]1C — EC50 (HEK293T ATF4-FLuc reporter; ATF4 reporter gene, activator, luciferase reporter): > 9.96 µM
CN1CCc2[nH]c(-c3ccnc(NC(=O)[C@@H](CC(F)F)c4ccc(F)cc4)c3)c(Nc3ccccc3)c2C1=O — log2 fold change (MOLM-13; RNA-seq, item: MCM4 mRNA; 200 nM, 24 h; reference: DMSO): -3.3
COc1cc(CCC[P+](c2ccccc2)(c2ccccc2)c2ccccc2)c(OC)c2c1OCO2.[I-] — TGI (KM12; SRB): -5.18 log M
COc1ccc2c(c1)[nH]c1c(C)nccc12 — methylation reduction (DU-145; bisulfite pyrosequencing, item: RASSF1A promoter CpG site 3; concentration not given; reference: vehicle): 0%
Oc1cc(Cl)ccc1Oc1ccc(Cl)cc1Cl — point of departure (HepG2; high content imaging, item: cell count; 24 h, distribution mode 1): 5.13 µM
Cc1sc2c(c1C)C(c1ccc(Cl)cc1)=N[C@@H](CC(=O)OC(C)(C)C)c1nnc(C)n1-2 — log2 fold change (iCas9-MOLM-13 sgGFP; RNA-seq, item: TERT; 50 nM, 24 h; reference: DMSO): -1.06
Oc1ccc(C2(c3ccc(O)cc3)c3ccccc3-c3ccccc32)cc1 — G1 phase cells (HepG2 spheroids; Hoechst flow cytometry; 10 µM, 24 h): 71.5 ± 1.6%
C[C@]12CC[C@H](O)C[C@H]1CC[C@@H]1[C@@H]2CC[C@]2(C)[C@@H](C3=CC(=O)OC3)[C@@H](O)C[C@]12O — MyBP-C level change (human iPSC cardiomyocytes; plate-normalised; concentration not given, hit retest; reference: vehicle controls, SDs below control): 10.9 SD
CCC(=O)N(CCC#N)c1ccc2c(c1)OCCN2CC(=O)NCC(=O)Nc1ccc(C(=O)NCCCCCCC(=O)NO)cc1.O=C(O)C(F)(F)F — EC50 (U-87 MG; cell viability, MTT; up to 50 µM): no effect
CC(C)(C)c1cc(C=C(C#N)C#N)cc(Br)c1O — membrane expression (hCMEC/D3; outcome: decreased, Western blot, item: LRP-1; 100 µM, with or without insulin): decreased
Cn1cncc1C1=CN(c2ncnc3[nH]cnc23)CCS1 — CC50 (KM12; colon cancer): > 200 µM

Some of these lines once more:
Oc1ccc(C(c2ccc(O)cc2)(C(F)(F)F)C(F)(F)F)cc1 — G1 phase cells (HepG2 spheroids; Hoechst flow cytometry; 0.1 µM, 24 h): 73.5 ± 1.59%
Cc1cnc2ccc3c(nc(N)n3C)c2n1 — plating efficiency (BALB/c 3T3; colony formation; 5 µM): 46%
COc1c(C)c2c(c(O)c1C/C=C(\C)CCC(=O)O)C(=O)OC2 — IC50 (THP-1; cell proliferation; blood cancer): 0.437 µM
